Assay results collected from several papers.
Each line is one published result; not all experiments were run side by side. ± gives the spread as reported.

By UniProt entry, the sequences of proteins in these tests, tags left out. Residues count along the entry.
UniProt Q96S53, whole entry: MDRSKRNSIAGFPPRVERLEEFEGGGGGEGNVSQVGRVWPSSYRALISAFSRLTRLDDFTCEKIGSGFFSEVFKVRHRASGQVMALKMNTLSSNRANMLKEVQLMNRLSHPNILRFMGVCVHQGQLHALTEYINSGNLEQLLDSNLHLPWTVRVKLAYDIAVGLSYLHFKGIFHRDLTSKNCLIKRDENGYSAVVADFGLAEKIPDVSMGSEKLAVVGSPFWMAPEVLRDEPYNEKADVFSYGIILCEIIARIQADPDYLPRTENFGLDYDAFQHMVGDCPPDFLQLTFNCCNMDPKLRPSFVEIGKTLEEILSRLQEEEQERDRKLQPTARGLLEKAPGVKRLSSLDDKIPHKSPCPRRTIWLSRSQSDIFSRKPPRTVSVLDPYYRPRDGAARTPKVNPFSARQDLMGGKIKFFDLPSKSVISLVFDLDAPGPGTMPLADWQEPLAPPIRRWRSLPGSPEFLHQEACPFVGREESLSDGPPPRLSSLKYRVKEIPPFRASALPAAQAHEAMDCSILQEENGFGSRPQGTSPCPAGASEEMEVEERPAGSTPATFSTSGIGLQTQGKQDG
UniProt P28072, whole entry, looked up: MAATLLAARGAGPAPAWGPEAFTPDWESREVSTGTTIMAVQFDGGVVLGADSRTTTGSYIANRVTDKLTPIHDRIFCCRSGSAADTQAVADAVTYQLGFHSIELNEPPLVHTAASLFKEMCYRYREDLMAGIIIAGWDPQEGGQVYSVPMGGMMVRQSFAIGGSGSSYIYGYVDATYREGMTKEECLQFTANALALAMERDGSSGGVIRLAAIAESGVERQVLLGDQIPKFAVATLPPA
UniProt P0A0C1, whole entry: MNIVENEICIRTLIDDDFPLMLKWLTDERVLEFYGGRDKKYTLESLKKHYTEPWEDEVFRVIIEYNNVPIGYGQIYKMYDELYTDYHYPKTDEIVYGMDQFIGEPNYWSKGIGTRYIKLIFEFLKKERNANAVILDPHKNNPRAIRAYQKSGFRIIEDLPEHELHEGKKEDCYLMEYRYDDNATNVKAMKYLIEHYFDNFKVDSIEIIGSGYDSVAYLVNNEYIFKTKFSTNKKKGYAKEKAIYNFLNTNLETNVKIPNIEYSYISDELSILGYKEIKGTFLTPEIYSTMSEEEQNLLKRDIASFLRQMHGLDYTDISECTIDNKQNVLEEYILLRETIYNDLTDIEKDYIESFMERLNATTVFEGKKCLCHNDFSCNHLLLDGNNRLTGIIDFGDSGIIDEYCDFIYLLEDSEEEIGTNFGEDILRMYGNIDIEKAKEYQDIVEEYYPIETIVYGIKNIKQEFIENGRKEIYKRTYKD
UniProt P54756, whole entry, looked up: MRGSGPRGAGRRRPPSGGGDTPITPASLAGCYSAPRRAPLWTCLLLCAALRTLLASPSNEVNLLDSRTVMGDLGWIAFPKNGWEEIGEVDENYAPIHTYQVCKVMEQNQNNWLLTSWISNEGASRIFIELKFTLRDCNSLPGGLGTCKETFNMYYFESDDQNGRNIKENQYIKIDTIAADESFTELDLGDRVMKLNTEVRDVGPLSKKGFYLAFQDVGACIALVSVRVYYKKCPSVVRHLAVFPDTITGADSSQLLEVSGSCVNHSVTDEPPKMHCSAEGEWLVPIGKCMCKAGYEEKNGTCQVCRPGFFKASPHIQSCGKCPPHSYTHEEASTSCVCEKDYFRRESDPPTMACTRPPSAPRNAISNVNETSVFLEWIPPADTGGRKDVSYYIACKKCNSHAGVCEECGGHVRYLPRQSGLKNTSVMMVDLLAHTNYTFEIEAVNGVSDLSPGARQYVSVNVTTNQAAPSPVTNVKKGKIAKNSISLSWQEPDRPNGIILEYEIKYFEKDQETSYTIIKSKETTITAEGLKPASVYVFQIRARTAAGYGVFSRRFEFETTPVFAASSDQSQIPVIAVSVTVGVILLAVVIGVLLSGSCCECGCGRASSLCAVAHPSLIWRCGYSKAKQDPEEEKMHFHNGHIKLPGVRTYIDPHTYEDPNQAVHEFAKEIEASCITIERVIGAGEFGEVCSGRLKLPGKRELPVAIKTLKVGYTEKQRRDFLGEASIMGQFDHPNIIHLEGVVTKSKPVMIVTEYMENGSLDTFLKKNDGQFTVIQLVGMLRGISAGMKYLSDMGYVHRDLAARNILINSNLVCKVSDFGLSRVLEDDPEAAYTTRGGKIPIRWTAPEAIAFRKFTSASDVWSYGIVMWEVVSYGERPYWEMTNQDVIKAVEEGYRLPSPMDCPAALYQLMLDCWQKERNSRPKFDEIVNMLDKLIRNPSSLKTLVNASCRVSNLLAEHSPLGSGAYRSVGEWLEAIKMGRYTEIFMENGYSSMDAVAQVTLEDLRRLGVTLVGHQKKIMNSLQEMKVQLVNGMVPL
UniProt Q00961, whole entry, looked up: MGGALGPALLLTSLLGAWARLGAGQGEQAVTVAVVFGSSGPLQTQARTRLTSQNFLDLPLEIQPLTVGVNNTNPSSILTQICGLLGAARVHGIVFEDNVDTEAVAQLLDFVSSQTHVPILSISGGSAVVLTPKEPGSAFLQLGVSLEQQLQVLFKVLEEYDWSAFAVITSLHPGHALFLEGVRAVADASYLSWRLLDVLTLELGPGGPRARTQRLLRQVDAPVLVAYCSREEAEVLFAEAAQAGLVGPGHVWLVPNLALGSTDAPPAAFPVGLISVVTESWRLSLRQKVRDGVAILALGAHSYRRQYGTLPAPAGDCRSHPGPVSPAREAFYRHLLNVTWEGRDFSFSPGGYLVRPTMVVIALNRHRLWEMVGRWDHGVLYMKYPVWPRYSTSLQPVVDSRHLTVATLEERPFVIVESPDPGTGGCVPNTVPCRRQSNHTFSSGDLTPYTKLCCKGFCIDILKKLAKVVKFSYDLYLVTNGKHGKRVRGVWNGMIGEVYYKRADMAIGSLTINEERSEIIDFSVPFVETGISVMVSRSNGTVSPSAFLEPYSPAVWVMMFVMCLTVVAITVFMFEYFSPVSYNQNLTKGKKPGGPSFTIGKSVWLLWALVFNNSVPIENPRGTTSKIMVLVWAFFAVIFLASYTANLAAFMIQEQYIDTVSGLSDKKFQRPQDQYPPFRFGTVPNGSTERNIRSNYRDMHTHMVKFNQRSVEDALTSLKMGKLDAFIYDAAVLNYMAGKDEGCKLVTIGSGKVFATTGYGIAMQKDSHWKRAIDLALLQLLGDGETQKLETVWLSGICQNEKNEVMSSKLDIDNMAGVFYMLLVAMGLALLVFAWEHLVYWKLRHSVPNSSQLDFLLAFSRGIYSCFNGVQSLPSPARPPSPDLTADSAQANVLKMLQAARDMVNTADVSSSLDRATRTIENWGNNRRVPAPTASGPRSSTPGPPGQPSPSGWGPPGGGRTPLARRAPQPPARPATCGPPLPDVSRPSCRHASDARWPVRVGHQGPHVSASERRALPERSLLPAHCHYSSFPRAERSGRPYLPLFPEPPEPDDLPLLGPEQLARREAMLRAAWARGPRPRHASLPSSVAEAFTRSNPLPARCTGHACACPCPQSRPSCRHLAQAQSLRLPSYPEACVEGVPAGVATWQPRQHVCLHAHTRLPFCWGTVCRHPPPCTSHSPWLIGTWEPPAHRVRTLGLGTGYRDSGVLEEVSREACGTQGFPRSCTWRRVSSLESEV
UniProt P05979, 25-600 limits assumed: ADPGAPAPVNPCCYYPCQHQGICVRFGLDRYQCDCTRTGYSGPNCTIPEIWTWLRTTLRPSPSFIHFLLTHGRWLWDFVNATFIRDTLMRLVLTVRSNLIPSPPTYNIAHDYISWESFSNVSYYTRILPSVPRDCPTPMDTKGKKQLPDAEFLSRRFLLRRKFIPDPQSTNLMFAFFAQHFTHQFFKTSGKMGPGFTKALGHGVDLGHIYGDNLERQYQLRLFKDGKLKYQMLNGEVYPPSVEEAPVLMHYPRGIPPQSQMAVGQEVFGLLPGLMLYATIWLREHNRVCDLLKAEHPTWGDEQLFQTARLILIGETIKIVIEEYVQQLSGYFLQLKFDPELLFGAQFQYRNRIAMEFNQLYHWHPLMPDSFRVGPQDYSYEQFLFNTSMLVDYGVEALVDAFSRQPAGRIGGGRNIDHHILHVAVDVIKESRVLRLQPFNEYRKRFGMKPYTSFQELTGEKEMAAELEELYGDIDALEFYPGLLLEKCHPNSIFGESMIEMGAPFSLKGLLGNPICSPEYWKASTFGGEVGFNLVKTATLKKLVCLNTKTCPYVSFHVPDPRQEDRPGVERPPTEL
UniProt Q13002, 32-908 limits assumed: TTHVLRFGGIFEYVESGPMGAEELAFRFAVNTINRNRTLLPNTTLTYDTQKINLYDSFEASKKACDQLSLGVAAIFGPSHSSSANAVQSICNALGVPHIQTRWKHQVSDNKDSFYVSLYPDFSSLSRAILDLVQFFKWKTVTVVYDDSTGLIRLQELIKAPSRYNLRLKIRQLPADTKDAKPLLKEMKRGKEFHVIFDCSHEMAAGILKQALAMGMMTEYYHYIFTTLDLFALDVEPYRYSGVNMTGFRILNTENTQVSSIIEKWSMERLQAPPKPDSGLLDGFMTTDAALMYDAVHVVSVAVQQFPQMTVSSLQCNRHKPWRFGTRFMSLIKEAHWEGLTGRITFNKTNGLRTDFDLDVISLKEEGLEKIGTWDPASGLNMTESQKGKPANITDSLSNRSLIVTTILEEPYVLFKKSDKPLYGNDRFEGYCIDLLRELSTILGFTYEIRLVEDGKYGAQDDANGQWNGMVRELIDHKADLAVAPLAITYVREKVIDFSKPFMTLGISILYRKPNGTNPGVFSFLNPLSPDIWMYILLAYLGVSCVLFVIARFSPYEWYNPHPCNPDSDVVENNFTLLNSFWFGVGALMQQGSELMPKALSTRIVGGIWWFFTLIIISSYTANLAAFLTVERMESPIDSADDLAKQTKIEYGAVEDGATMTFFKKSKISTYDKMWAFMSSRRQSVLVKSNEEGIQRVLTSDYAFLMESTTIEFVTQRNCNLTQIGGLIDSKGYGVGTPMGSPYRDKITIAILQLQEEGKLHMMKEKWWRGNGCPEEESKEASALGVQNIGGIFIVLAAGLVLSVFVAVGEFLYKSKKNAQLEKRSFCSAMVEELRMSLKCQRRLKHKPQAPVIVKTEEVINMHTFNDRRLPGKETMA
UniProt Q16478, 15-980 limits assumed: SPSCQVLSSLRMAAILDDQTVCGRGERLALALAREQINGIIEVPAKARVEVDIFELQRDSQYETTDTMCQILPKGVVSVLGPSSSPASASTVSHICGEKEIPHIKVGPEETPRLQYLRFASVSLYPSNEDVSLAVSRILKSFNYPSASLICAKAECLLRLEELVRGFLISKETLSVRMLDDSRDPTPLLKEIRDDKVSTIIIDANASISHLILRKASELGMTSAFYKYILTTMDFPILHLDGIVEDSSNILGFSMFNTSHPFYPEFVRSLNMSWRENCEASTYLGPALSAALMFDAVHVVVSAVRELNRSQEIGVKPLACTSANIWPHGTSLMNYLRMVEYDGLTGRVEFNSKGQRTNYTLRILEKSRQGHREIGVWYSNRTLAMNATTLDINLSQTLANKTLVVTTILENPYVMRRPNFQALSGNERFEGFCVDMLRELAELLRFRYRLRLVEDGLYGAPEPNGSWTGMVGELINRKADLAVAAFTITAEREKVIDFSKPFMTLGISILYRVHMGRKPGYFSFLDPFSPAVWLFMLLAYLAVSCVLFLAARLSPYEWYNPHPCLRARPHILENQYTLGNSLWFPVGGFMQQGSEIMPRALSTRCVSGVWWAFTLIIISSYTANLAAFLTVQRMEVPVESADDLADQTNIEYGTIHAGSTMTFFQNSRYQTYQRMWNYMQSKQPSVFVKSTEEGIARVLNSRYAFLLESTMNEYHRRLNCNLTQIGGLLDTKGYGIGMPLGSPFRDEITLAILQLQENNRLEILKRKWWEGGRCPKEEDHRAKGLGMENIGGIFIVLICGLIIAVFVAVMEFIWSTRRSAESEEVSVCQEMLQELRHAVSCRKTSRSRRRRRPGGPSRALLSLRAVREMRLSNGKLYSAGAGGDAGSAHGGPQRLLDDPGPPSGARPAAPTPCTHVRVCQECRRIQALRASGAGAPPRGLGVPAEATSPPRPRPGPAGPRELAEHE
UniProt P06276, whole entry, looked up: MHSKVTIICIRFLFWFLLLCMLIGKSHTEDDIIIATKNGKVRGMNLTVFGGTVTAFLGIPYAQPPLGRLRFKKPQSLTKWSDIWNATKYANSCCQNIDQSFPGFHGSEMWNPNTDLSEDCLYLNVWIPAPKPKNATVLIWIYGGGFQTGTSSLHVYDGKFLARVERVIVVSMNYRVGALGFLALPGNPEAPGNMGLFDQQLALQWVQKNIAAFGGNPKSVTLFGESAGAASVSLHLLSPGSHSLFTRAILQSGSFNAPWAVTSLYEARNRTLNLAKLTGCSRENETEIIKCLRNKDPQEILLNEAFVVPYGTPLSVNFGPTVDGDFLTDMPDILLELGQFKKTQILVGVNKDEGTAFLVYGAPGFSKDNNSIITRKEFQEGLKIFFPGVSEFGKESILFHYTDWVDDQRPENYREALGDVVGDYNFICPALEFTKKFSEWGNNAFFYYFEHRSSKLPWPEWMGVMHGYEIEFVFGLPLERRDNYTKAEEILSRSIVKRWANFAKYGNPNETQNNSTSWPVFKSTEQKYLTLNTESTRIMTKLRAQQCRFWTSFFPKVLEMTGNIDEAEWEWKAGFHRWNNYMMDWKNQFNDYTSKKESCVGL

SMILES | target | test | system | conditions | how to read | quantity | value
CCN1CCN(Cc2ccc(NC(=O)c3ccc(C)c(/C=C/c4cnc5[nH]ccc5c4OC)c3)cc2C(F)(F)F)CC1 | Dual specificity testis-specific protein kinase 2 (TESK2, Homo sapiens, UniProt Q96S53) | inhibitor, cell-based kinome screen | human cells | 5 µM | relative to: vehicle | log2 fold change | 0.327
Cc1ccc(-c2nsc(=O)o2)cc1 | Proteasome subunit beta type-6 (PSMB6, Homo sapiens, UniProt P28072) | inactivation | human PA28-activated proteasome |  |  | kobs/[I] | 1.36 M⁻¹ s⁻¹
CC1=C(c2ccc(F)cc2)S(=O)(=O)N=C1N1CCC(N2CCCCC2)CC1 | aacA-aphD (Staphylococcus aureus, UniProt P0A0C1) | acetyltransferase activity, inhibitor |  | concentration not given |  | inhibition | no inhibition
CC#C/C(=N\OC[C@H]1COCCN1)c1ccc2ncnc(Nc3ccc(OCc4cccc(F)c4)c(Cl)c3)c2c1 | Ephrin type-A receptor 5 (EPHA5, Homo sapiens, UniProt P54756) | kinase activity |  | 10 µM |  | inhibition | 11%
COc1ccc(OC[C@H]2c3cccn3CC(=O)N2Cc2cccc(F)c2)cc1 | Glutamate receptor ionotropic, NMDA 2C, with GluN1 (Rattus norvegicus, UniProt Q00961) | ion current, whole-cell patch clamp | HEK293T cells, transfected | 10 µM, together with: 1 mM glutamate for 10 ms plus 100 µM glycine |  | weighted deactivation tau | 1120 ± 227 ms
COc1ccc2c(c1)c(CC(=O)O[C@@H](C(=O)O[C@H]1C[C@@]3(O)[C@@H](OC(=O)c4ccccc4)[C@@H]4[C@]5(OC(C)=O)CO[C@@H]5C[C@H](O)[C@@]4(C)C(=O)[C@H](OC(C)=O)C(=C1C)C3(C)C)[C@@H](NC(=O)c1ccccc1)c1ccccc1)c(C)n2C(=O)c1ccc(Cl)cc1 | Prostaglandin G/H synthase 1 (PTGS1, Ovis aries, UniProt P05979) | enzyme activity, inhibitor | purified enzyme | concentration not given |  | inhibition | no inhibition
CC1(C)S[C@@H]2CS[C@@H](CS)N2[C@H]1C(=O)O | Metallo-beta-lactamase VIM-2 (VIM-2, Escherichia coli, UniProt Q5U7L7, R205L) | slow-binding inhibitor | Klebsiella pneumoniae | together with: nitrocefin |  | k2 (E*I formation) | 1e-05 ± 0.003 s⁻¹
CCN(CC)C(=O)Oc1ccc(C(=O)Nc2cccc3cc[nH]c23)cc1 | Glutamate receptor ionotropic, kainate 2/Glutamate receptor ionotropic, kainate 5 (Homo sapiens, UniProt Q13002+Q16478) | modulator, two-electrode voltage clamp | Xenopus oocytes | 20 µM, together with: 100 µM AMPA | relative to: agonist alone | current response | 96.5 ± 4.6%
CCN(CC)c1ccc2c(O)c(C=Nc3ccc(CC(=O)NNc4c5c(nc6ccccc46)CCCC5)cc3)c(=O)oc2c1 | Cholinesterase (BCHE, Homo sapiens, UniProt P06276) | enzyme activity, fluorescence |  |  |  | efficacy | -100 ± 18.3%

A few entries again:
SMILES | target | test | system | conditions | how to read | quantity | value
CC#C/C(=N\OC[C@H]1COCCN1)c1ccc2ncnc(Nc3ccc(OCc4cccc(F)c4)c(Cl)c3)c2c1 | Ephrin type-A receptor 5 (EPHA5, Homo sapiens, UniProt P54756) | kinase activity |  | 10 µM |  | inhibition | 11%
